Experimental data from different studies.
Lines come from different studies, so protocols differ. ± gives the spread as reported.
Cell line: Jurkat

| Structure (SMILES) | effect on | method | measured | time | together with | IC50 [µM] |
| --- | --- | --- | --- | --- | --- | --- |
| N#Cc1c(N)nc2c(c1-c1ccccc1)Cc1cc(O)ccc1-2 | cell growth or viability | ATP luminescence | – | – | – | 24.1 |
| CN(C)Cc1nc(Nc2ccc(-c3cnc4cc(F)ccn34)c3c2C(=O)NC3)ccc1C1CCOC1 (stereo not shown) | – | – | SLP76 phosphorylation | – | anti-CD3 | 0.041 |
| CCOc1cncc(-c2ccc(NC(=O)C3(c4ccnc(NS(=O)(=O)C5CC5)n4)CCOCC3)nc2)n1 | cell growth or viability | ATP luminescence | – | 72 h | – | 0.023 |
| NC(=O)c1ccc(-c2ccccc2Cl)c2c3c([nH]c12)CC[C@@H](N)C3 | cell growth or viability | – | – | – | – | 0.024 |
| N#Cc1c(N)nc2c(c1-c1ccc(CO)o1)CCc1cc(O)ccc1-2 | cell growth or viability | ATP luminescence | – | – | – | 9.6 |
| CO[C@@H](C[C@H]1C(C)=CC[C@@H]2[C@]3(C)C[C@H](O[C@@H]4O[C@@H](C)[C@H](OC(=O)c5cccc(O)c5)[C@@H](O[C@@H]5O[C@H](CO)[C@@H](O)[C@H](O)[C@H]5NC(C)=O)[C@H]4O)[C@@H](O)C(C)(C)[C@H]3CC[C@]21C)[C@H](N)C(=O)O | cell growth or viability | CCK-8 | – | 72 h | – | 0.203 |
| CC(C)c1ccc(N(C)c2ccc3c(c2)OCC[C@H]3CNc2cnccc2C(=O)O)cc1 | cell growth or viability | ATP luminescence | – | 7 days | – | 0.00149 |
| CN1CCC(N[C@@H]2CCc3[nH]c4c(C(N)=O)ccc(-c5ccccc5Cl)c4c3C2)CC1 | cell growth or viability | – | – | – | – | 0.00937 |
| N#Cc1c(N)nc2c(c1-c1cccs1)Cc1cc(O)ccc1-2 | cell growth or viability | ATP luminescence | – | – | – | 59.5 |
| O=S(=O)(c1ccc2c(c1)OCO2)n1cc(CCCCN2CCC(=C(c3ccc(F)c(F)c3)c3ccc(F)c(F)c3)CC2)nn1 | cell growth or viability | ATP luminescence | – | 48 h | – | 4.17 |
| CCCON(Cc1ccc(C(=O)NO)cc1)C(=O)Nc1cc(C)cc(C)c1 | cell viability | – | – | 72 h | – | 3.04 ± 0.142 |
| CO[C@@H](C[C@H]1C(C)=CC[C@@H]2[C@]3(C)C[C@H](O[C@@H]4O[C@@H](C)[C@H](OC(=O)c5cccc(O)c5)[C@@H](O)[C@H]4O)[C@@H](O)C(C)(C)[C@H]3CC[C@]21C)[C@H](N)C(=O)O | cell growth or viability | CCK-8 | – | 72 h | – | 1.17 |
| C=CC(=O)N1CCCC(n2c(=O)c3ncccc3n(Cc3ccc(Oc4ccccc4)cc3)c2=O)C1 (stereo not shown) | cell growth or viability | MTT | – | 72 h | – | 15 |

Repeated from above:
| Structure (SMILES) | effect on | method | measured | time | together with | IC50 [µM] |
| --- | --- | --- | --- | --- | --- | --- |
| CCOc1cncc(-c2ccc(NC(=O)C3(c4ccnc(NS(=O)(=O)C5CC5)n4)CCOCC3)nc2)n1 | cell growth or viability | ATP luminescence | – | 72 h | – | 0.023 |
